# Results from different studies.
# Compare with care: the assays were run in different laboratories.
# Target: Tyrosine-protein kinase ITK/TSK (ITK, Homo sapiens, UniProt Q08881)
SMILES,test,conditions,how to read,quantity,value
CCN1CCN(Cc2ccc(C(=O)Nc3ccc(C)c(NCc4cnc5[nH]ccc5c4OC)c3)cc2C(F)(F)F)CC1,"binding, competition with immobilised ligand",1 µM,,remaining binding,100%
Nc1ncc2c(n1)-c1c([nH]c3ccc(C4=CCOCC4)cc13)CCC2,"binding, competition with immobilised ligand",1 µM,,remaining binding,100%
Cc1cnc2nc1Nc1cccc(c1)COC/C=C/COCc1cc(ccc1OCCN1CCOCC1)N2,,concentration not given,,percent of control,90%
NC(=O)[C@@H](O)C[C@H]1CCc2sc3ncnc(O[C@H]4CC[C@H](N5CCOCC5)CC4)c3c21,"enzyme activity, inhibitor",10 µM,,inhibition,46%
COc1ccc(O)cc1-c1c[nH]c2ncc(-c3cncc(C(=O)N(C)C)c3)cc12,"binding, competition with immobilised ligand",0.2 µM,,inhibition,-11.7%
CCn1cc(C(=O)O)c(=O)c2c(N)c(F)c(NC3CCCCC3)cc21,kinase activity,"0.1 µM, together with: ATP at Km",,inhibition,5.4%
C=CC(=O)N1CCCC(n2c(=O)c3ncccc3n(Cc3ccc(Oc4ccccc4)cc3)c2=O)C1 (centres unmarked),"cell-free assay, competition with immobilised ligand",1 µM,,remaining binding,90%
COc1cc(-n2cc3cc(F)cc(C(N)=O)c3n2)cc(Cl)c1C1CC(O)(CCO)Cc2ccccc21 (centres unmarked),"enzyme activity, inhibitor",10 µM,,inhibition,7.97%
CNC(=O)C[C@H](Cc1ccc(C#N)cc1)NC(=O)c1cc(-c2ccc(CN[C@H](C)c3ccc(C)cc3)o2)ccc1Cl,"enzyme activity, inhibitor",1 µM,,activity vs control,105%
CN1CCN(c2ccc(Nc3ncc(Cl)c(Nc4ccccc4P(C)(C)=O)n3)cc2Br)CC1,"enzyme activity, inhibitor",0.1 µM,,inhibition,82.4%
Cc1cccc(O[C@H]2CCC[C@@H](C(C)CNCc3ccncc3)C2)c1 (relative stereo),"kinase activity, kinome panel screening",1 µM,,inhibition,1%
C=CC(=O)Nc1cccc(-c2cnc3[nH]cc(C(=O)NC(C)(C)C)c3n2)c1,"enzyme activity, inhibitor",0.1 µM,,inhibition,58%
COc1cc(Nc2nccc(-c3cnn4nc(OC)ccc34)n2)cc(C(F)(F)F)c1,"binding, competition with immobilised ligand",1 µM,,remaining binding,95%
COc1ccc(NC(=O)Nc2ccc3c(c2)C(=O)N(C(C)CO)CC(C)C(CN(C)Cc2ccc4c(c2)OCO4)O3)cc1 (centres unmarked),"kinase activity, KinaseProfiler","0.03 µM, species human",baseline: control,remaining activity,95%
COc1c(Cl)cccc1Nc1c(-c2ccncc2C#C[C@@]2(C)CCCN2C(=O)/C=C/CN(C)C)[nH]c2c1C(=O)NCC2,"cell-free assay, competition with immobilised ligand",3 µM,,remaining binding,91%
CNC1C[S+]2CC[S+]3CC[S+](C1)[Ru-4]321([N]=C=S)[n]2c3ccc(OC)cc3c3c4c(c5cc(F)c[n+]1c5c32)C(=O)NC4=O (centres unmarked),KinomeScan,0.1 µM,baseline: untreated,remaining binding,100%
CN1CCN(Cc2ccc(-c3ccc(CO[C@H]4CCC[C@@H]4NC(=O)c4cc(-c5cnn(C)c5)cnc4N)cc3)cc2)CC1,"enzyme activity, inhibitor",0.1 µM,,inhibition,-5%

# Excerpt of the above:
SMILES,test,conditions,how to read,quantity,value
C=CC(=O)Nc1cccc(-c2cnc3[nH]cc(C(=O)NC(C)(C)C)c3n2)c1,"enzyme activity, inhibitor",0.1 µM,,inhibition,58%
